{"data": "Experimental data gathered from unrelated publications", "note": "Numbered parts are unrelated; each lists some results of a single study."}
{"data": "Series 1", "target": "Ras GTPase-activating protein-binding protein 1, full length (G3BP1, Homo sapiens, UniProt Q13283)", "technique": "RNA Bind-n-Seq", "molecule type": "RNA", "sample": "in vitro", "tested at": "200 nM", "setting": "whole 134-nt RNA, ends assumed", "added": "150 mM LiCl", "reference": "input library", "direction": "higher = stronger binding", "library": "7-deaza-guanosine replaces G", "UniProt Q13283, sequence (whole entry, looked up)": "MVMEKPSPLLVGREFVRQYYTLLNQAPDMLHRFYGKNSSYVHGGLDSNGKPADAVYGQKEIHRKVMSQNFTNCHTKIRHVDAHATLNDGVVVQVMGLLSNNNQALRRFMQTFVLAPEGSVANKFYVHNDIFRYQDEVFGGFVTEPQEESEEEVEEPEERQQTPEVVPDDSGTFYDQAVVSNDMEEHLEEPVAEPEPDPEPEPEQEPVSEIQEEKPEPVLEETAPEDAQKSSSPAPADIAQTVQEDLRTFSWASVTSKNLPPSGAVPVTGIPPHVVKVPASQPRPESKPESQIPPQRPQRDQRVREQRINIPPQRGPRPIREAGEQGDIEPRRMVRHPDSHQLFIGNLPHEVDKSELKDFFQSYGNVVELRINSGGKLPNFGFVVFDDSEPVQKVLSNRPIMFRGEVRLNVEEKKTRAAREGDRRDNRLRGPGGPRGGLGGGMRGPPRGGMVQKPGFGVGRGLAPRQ"}
{"Sequence": "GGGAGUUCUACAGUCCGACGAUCUCAAGUCCUGUGCUACACAUCGUAUGUACCGAAUCGGAAAAAGGUUUUUGGAGGAAAGUAUUAUGUUACGCCGUUCGGAUCUGCACUUCCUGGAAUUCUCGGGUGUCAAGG", "log2 enrichment": -0.135}
{"Sequence": "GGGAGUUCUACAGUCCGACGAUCGUCCUGUGCUACACAUCGUAUGUACCGAAUCAAAUUUAAAUUUUUUUAAAUUUUUAAAAAAGUAUUAUGUUACGCCGUUCGGAUCUGCACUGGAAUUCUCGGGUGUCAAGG", "log2 enrichment": -2.75}
{"Sequence": "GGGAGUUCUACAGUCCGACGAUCACCAAGCAGGUGGGCAUCUUUGGGAAGUGGGGCAAGGGGGGGAUAGGGAGGGGGGUAACACUUUGGGAACAGGUGGUCCCAGGUCGUUUCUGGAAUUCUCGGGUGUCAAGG", "log2 enrichment": 0.243}
{"Sequence": "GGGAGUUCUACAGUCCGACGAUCUGGCAUGGAUCCAGUGGGCUGAGACCACCCUCAUUCAGCGGGAUCAGGAGCCAAUCCCGCAGAACAUUGACCGAGUUAAAGCCCUUAUCGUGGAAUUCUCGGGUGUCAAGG", "log2 enrichment": -1.82}
{"Sequence": "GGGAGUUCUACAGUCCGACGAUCCUGUGCUACACAUCGUAUGUACCGAAUCGGAAAAAAAGGGAAAAAAAGGGAAAAAAAGGGGAAAGUAUUAUGUUACGCCGUUCGGAUCUGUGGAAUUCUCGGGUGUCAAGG", "log2 enrichment": -0.146}
{"Sequence": "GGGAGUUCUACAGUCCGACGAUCUCCUGUGCUACACAUCGUAUGUACCGAAUCGGGUUUUUUUGGGUUUUUGGGUUUUUGGGAAAGUAUUAUGUUACGCCGUUCGGAUCUGCAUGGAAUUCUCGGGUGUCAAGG", "log2 enrichment": 0.759}
{"Sequence": "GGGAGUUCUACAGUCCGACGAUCGUGCUACACAUCGUAUGUACCGAAUCGGGGUUUUUUUGGGGAAAAAAAGGGGAAAAAAAGGGGAAAGUAUUAUGUUACGCCGUUCGGAUCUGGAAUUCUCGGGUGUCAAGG", "log2 enrichment": -1.1}
{"data": "Series 2", "target": "Histone acetyltransferase KAT6A, winged helix 1, GST fusion (KAT6A, Homo sapiens, UniProt Q92794, residues 1-85)", "technique": "protein binding microarray", "molecule type": "double-stranded DNA, one strand shown", "sample": "in vitro", "tested at": "not given", "setting": "8-mer, flanks averaged, mean of 2 arrays, mostly near background", "reference": "not given", "direction": "higher = stronger binding", "Residues (chain)": "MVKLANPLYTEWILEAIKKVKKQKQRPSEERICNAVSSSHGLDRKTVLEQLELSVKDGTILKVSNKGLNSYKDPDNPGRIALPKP"}
{"Sequence": "ACTATGTC", "E-score": 0.0722}
{"Sequence": "ATTGGACC", "E-score": -0.0303}
{"Sequence": "CTTGTTTA", "E-score": -0.15}
{"Sequence": "CGCCTTAG", "E-score": 0.184}
{"Sequence": "TCGAGCAA", "E-score": -0.0648}
{"Sequence": "AGGACTAC", "E-score": -0.037}
{"Sequence": "AAAGGTGT", "E-score": -0.0464}
{"Sequence": "AGGGCAAC", "E-score": -0.0355}
{"Sequence": "TAAGACTA", "E-score": -0.214}
{"Sequence": "GTACTCGA", "E-score": -0.0339}
{"Sequence": "ACTTCGCG", "E-score": 0.11}
{"Sequence": "CATTCGAA", "E-score": -0.182}
{"Sequence": "AGCTTCGC", "E-score": -0.0355}
{"Sequence": "ATTCTAAA", "E-score": -0.165}
{"data": "Series 3", "target": "RING finger protein unkempt homolog, zinc fingers 1-6, SBP tag (UNK, Homo sapiens, UniProt Q9C0B0, residues 30-357)", "technique": "RNA Bind-n-Seq", "molecule type": "RNA", "sample": "in vitro", "tested at": "100 nM", "setting": "RNA with constant flanks, vertebrate orthologous sites, ends assumed", "reference": "input RNA pool", "direction": "higher = stronger binding", "UniProt Q9C0B0, sequence (30-357, looked up)": "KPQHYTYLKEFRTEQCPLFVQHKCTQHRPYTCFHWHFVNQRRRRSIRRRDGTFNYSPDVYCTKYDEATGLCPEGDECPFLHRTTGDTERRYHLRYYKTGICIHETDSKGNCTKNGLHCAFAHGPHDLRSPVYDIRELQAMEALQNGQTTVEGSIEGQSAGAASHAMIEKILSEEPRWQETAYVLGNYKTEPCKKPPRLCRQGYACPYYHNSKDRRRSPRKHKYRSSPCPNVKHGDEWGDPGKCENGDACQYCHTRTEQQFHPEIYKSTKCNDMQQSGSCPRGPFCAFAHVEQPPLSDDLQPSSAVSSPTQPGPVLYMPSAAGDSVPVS"}
{"Sequence": "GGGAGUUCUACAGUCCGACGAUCUUACAGUCAUUGAUGGACUCUAUUUUUUUAUUAUUACUUGGACCUUGGUCGUUUUUAUACUAGCAAAAUGUCUUGUUUUAAUUUGUGUUUUUUGGGGGGAGGGAGGGAGUGAACUUGCUGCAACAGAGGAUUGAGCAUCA", "bound/input enrichment [ratio]": 2.03}
{"Sequence": "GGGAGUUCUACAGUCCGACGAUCAAGUAGUUUUAAGCUUGUUUGCACAGUUCUUUUUUCCAUUGGAAAUGGAAUUCAUUGCCUUAGGUCUUUUUAAAUAGUGUAUUAUUAUUGUUGGGGCUGGCUCUAUGCUUGAAAACCAGUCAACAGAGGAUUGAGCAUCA", "bound/input enrichment [ratio]": 3.59}
{"Sequence": "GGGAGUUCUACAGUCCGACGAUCCUACUAUAAACAACUCAGGGCAGUAUUCUCGCUAUCCUUACAGUAACCUAAAUCAGGGAUUAGUUAACAAUACAGGGAUGAAUCAGAAUCUAGGCCUUACAAAUAAUACUCCAAUGAACCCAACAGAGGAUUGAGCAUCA", "bound/input enrichment [ratio]": 1.05}
{"Sequence": "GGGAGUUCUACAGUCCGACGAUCAGCAACCCAUGGAUUCAGGACUGGUUUCACAAAUAUACCAAGUAGAUACGGAAGUAACAACAGAAUUGGACAACCAAGACCAUGAUGUGCUCUAACUUAUUUGAUAUUGACUCUUUGGCUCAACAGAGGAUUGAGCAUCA", "bound/input enrichment [ratio]": 0.541}
{"Sequence": "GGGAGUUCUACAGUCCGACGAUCCAGCAGAUUCUCUCAUAGGGAGAGCUGCACACAUUGCUGUUCUUGAUUCAGAAAUAUUUUUAGAAAAAUUCUUUCUUGUUGCUGCCCUAAAAUAUUUUCAGUAGGGAAAAGCAUUGUAAGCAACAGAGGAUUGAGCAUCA", "bound/input enrichment [ratio]": 0.345}
{"Sequence": "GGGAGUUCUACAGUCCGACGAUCCAGAGCAGUUACCUAGUUCGGAGCAGUCCUUACAGGGAUAUUUCGGUUCAGGCAGCGAAGCGGAUGUAUCCUACCAGCAGGAACCAUCCCAUCAGCCCUCCGUGUCCUGCAACCCCUCCACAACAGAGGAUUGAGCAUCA", "bound/input enrichment [ratio]": 0.416}
{"data": "Series 4", "target": "RNA binding protein fox-1 homolog 2, RRM domain, GST-SBP tag (RBFOX2, Homo sapiens, UniProt O43251-10, residues 100-194)", "technique": "RNA Bind-n-Seq", "molecule type": "RNA", "sample": "in vitro", "tested at": "365 nM", "setting": "natural RNA segment, single round, ends assumed", "reference": "no-protein control", "direction": "higher = stronger binding", "Residues (chain)": "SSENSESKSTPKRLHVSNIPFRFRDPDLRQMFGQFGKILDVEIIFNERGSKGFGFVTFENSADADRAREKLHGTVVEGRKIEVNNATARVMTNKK"}
{"Sequence": "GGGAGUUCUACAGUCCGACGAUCGAACUGAAUUUUUUGUCUGUUAAAUGAACUUGAUAGCUAAUAAAAAGACAACUAGCCAUCAAAAUCAUAUGUUUCUCUACAGAUUUAGUUCUUUAUAGAGGUACUUUUUAUGGAAUUCUCGGGUGCCAA", "RBNS enrichment (R)": 0.43}
{"Sequence": "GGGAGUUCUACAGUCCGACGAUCACCUGUGUAUUUAUCCUUGAUCAUAGUUUGCUUAUUUAUGUUUAACUCUUCGGACUUCAGAGCACUUUAUGUAGUUGAAUAAACCCUAGAGGUUGAGGUGACUAAAAGGUUGGAAUUCUCGGGUGCCAA", "RBNS enrichment (R)": 0.45}
{"Sequence": "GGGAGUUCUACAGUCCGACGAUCAGGCAGAGCUUGUGGAGAUUCAUGAAAGAGUCAUAGCCAGUUUGGCAUGCAGAGGUCUUCAGUCUUGCUUAUUCUUCUCCUGGGCUUCUUGACACAGGGGCAGAAGAAACUGGAAUUCUCGGGUGCCAA", "RBNS enrichment (R)": 0.714}
{"Sequence": "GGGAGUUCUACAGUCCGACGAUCUAAACCUGAUUUUUGUUUUCAAAUAAGAAUGUAAGCAUUUUACUUAAACUGUACUGUUUGCAAGUAGUUUAUAGAAAUUUUGUUUUAAGUCUUCAAAUACCUUGAAAAAAUGGAAUUCUCGGGUGCCAA", "RBNS enrichment (R)": 0.552}
{"Sequence": "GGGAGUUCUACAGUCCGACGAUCACUGCGCCUGGAUUCUGCCAUUGCGACACAUUUUUGUGCCUUUCAGCCCCUGGUGUCUGCAGUGGGGGAUUUAAGGCACCCGCUUCCACUUCUUUCUUGUUUGGAGUUUUUGGAAUUCUCGGGUGCCAA", "RBNS enrichment (R)": 0.299}
{"Sequence": "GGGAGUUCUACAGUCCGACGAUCCUAGAAAGGGGCAACACAGGGUACUACUUGAACUUUCCUAUCACAGCUCCCAUGCCACAGAGGGACAGACCCCUGCUGUCCUGCCCUCUUGCCACUGGUGAGAGAAGGCCUGGAAUUCUCGGGUGCCAA", "RBNS enrichment (R)": 0.333}
{"Sequence": "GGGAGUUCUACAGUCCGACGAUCAAUGACCCACAGUAGUCUUUAGUAAACUGUUGAGAAAUCUGGGUAAAAGGCUGCCUUCAAUUCUAAGCUUUGUUUUUUUGUGGUUUUUGUUAUUAUUUGUUUCUGUUGUUUGGAAUUCUCGGGUGCCAA", "RBNS enrichment (R)": 1.55}
{"Sequence": "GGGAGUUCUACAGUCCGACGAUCUGUGUAUAUAGUAUUCUCGAGAUGAGCGUAUGUGUGUCUGUUUAAAAGUCACCUUGUUUCCUACAUGAUUUUAGUCAUACCCAAACGUCCUCAGAAUCCCUACAUCCUGCUGGAAUUCUCGGGUGCCAA", "RBNS enrichment (R)": 0.301}
{"Sequence": "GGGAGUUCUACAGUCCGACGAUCGACCCUUGCUGCUCCCGUGGCCUGGACACGCUGGGGAGCUUCUCACACCUACCCCUACCGUCCAGCCUGGCCUCUUCCCUGAAUCAGCUUCAAGAUGGCACCAGCUCUUUUGGAAUUCUCGGGUGCCAA", "RBNS enrichment (R)": 0.764}
{"Sequence": "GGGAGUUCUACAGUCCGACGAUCAUUUAGGUCUCUAAACACAGACUUUUUAAAUUGCAACUGUAAAUAUGAAAUGGUCAUCACAUCUGACCUUGGUCAGUGGGGAGGGGAACUGGUAUCCUGCCAAGCCUGGUUGGAAUUCUCGGGUGCCAA", "RBNS enrichment (R)": 0.499}
{"Sequence": "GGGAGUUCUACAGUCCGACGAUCUUCUUGCCAUUACUCAGUGUUCCUAUAAAGAAAAUAUUAUGAUAUCUUGGAAAGGUUCUAUUCCUGAUCUCCAGCUGUGGUGAGCAAGUUUCCUGAAGUGUUUAUUUUCUUGGAAUUCUCGGGUGCCAA", "RBNS enrichment (R)": 0.301}
{"Sequence": "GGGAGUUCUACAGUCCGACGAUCAAAGGCUUUCUUUCCAAUCCUUUAUAGCUUUGGAGACGCCUCCCCAAUUCCCCAGGGAAGGAAACUGUUGUGUCCAAUCCCCAUUAAAGACAAAUUGAUCAGUGCUUCCCUGGAAUUCUCGGGUGCCAA", "RBNS enrichment (R)": 0.413}
{"note": "A few entries again (series 2):"}
{"Sequence": "ACTATGTC", "E-score": 0.0722}
{"Sequence": "ATTGGACC", "E-score": -0.0303}
{"Sequence": "CTTGTTTA", "E-score": -0.15}
